Experimental data of several laboratories.
Every numbered part comes from another study and shows a few of its results, in no order. Positions count from the first letter of the parent shown.
UniProt O24407, sequence (whole entry, looked up): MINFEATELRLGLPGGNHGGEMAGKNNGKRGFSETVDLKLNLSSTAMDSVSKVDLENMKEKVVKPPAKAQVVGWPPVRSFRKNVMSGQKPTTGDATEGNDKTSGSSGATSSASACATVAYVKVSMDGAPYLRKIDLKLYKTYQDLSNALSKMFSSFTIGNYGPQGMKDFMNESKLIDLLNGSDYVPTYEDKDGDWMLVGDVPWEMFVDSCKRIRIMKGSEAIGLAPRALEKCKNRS
UniProt Q9ZPY6, sequence (whole entry, looked up): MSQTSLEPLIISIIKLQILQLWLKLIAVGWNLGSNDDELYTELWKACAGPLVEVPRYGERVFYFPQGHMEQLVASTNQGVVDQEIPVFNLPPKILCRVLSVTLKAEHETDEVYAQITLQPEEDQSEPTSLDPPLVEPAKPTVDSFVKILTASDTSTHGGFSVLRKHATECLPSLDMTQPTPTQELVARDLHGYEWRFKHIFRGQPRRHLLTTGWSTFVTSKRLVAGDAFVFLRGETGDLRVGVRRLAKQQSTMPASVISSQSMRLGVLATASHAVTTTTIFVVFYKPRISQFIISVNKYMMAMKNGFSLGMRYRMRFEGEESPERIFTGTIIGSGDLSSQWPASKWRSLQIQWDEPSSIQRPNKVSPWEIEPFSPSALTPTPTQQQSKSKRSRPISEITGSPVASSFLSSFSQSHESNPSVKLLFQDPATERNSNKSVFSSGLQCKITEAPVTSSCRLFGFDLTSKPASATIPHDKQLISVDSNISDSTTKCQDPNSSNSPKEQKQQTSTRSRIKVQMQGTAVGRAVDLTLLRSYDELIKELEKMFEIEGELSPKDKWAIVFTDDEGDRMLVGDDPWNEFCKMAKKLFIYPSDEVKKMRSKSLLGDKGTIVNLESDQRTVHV
UniProt Q94JM3, sequence (whole entry, looked up): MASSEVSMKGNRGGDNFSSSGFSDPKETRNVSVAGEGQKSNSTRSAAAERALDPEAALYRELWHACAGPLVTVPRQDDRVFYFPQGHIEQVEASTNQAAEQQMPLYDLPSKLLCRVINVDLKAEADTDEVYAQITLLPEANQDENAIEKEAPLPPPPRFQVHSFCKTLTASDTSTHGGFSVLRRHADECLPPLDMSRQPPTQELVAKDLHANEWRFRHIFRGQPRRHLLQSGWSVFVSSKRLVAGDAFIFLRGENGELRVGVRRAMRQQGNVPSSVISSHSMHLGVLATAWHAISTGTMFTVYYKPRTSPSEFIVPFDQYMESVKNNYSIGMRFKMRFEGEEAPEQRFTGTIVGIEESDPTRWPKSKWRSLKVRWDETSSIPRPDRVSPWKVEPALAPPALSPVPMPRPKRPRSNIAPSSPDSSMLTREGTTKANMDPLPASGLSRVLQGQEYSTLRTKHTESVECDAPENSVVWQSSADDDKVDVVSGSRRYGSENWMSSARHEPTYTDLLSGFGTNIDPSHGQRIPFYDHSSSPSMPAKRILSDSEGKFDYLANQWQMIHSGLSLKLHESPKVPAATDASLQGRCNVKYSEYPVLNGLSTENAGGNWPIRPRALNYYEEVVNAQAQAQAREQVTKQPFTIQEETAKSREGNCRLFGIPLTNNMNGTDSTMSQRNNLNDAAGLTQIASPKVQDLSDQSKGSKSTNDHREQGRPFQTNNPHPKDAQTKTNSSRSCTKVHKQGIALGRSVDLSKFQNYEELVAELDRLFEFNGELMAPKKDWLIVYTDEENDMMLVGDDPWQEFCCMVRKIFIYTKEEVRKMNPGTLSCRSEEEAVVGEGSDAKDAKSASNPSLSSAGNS
UniProt Q38828, sequence (whole entry, looked up): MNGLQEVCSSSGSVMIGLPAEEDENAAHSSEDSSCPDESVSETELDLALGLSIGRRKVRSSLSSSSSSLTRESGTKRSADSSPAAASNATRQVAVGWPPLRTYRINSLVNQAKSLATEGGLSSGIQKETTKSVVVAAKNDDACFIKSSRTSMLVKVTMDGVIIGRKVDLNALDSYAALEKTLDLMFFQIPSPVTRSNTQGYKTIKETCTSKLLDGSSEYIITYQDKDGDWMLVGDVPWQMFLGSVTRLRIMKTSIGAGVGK
UniProt Q93WC4, sequence (whole entry, looked up): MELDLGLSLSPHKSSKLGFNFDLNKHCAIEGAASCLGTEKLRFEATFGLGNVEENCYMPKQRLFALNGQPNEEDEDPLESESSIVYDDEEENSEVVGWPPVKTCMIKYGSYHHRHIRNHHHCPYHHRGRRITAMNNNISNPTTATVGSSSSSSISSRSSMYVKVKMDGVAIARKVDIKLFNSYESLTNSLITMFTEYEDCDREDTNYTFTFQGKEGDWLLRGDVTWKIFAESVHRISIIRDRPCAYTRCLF
UniProt Q9C8N7, sequence (whole entry, looked up): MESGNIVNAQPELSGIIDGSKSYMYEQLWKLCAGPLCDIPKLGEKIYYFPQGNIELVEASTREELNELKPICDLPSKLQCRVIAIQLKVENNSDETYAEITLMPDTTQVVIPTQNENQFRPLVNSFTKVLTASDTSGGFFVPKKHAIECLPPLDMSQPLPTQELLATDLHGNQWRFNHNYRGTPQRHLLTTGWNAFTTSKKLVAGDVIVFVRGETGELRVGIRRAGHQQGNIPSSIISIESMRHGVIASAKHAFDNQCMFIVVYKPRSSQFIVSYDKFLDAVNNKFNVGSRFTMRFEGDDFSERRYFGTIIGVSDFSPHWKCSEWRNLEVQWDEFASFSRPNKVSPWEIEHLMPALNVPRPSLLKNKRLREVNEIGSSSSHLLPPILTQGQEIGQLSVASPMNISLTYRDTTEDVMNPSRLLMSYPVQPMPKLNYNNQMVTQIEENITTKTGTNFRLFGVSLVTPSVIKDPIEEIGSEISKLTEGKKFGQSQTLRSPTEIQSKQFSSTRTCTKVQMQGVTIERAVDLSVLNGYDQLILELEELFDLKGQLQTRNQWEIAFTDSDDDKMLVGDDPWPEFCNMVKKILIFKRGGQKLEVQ
UniProt Q9SKN5, sequence (whole entry, looked up): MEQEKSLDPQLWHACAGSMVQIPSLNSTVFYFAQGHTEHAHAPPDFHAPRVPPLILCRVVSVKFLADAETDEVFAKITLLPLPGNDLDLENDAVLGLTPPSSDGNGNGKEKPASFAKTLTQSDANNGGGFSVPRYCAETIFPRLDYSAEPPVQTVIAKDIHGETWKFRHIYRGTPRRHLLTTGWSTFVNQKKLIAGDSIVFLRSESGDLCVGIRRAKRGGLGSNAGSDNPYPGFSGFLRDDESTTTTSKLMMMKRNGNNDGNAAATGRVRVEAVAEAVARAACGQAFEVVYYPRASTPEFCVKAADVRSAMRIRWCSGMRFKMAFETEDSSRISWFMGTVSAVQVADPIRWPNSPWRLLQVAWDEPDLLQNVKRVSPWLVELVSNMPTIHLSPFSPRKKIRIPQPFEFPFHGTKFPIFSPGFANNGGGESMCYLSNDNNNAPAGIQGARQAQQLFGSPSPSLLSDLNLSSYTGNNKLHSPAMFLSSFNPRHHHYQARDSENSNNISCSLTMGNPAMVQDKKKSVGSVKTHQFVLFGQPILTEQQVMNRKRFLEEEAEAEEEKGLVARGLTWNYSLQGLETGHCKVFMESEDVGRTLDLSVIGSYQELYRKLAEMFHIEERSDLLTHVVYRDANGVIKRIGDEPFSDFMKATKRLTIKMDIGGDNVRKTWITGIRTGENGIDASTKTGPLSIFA
UniProt Q9FKM7, sequence (whole entry, looked up): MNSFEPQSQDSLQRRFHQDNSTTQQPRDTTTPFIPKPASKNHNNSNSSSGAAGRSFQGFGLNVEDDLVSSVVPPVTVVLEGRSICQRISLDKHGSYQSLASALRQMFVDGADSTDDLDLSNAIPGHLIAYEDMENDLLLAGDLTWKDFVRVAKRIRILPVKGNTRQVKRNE
UniProt Q38825, sequence (whole entry, looked up): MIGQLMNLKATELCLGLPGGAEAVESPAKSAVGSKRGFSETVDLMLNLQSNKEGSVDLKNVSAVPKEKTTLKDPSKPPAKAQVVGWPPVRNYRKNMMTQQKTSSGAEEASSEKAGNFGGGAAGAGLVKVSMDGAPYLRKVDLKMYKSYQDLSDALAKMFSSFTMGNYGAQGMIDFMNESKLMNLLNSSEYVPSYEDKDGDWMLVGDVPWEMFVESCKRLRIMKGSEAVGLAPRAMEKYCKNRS

Sample 1
Sequence: B1 (IAA5)
Method: two-hybrid
Reading: higher = firmer interaction
Endpoint: positive tests
B1: IAA5 (Arabidopsis thaliana, UniProt P33078); chain MANESNNLGLEITELRLGLPGDIVVSGESISGKKRASPEVEIDLKCEPAKKSQVVGWPPVCSYRRKNSLERTKSSYVKVSVDGAAFLRKIDLEMYKCYQDLASALQILFGCYINFDDTLKESECVPIYEDKDGDWMLAGDVPWEMFLGSCKRLRIMKRSCNRG
IAA16 (Arabidopsis thaliana, UniProt O24407); relative to: out of 4 tests: 3
ARF10 575-693 (Arabidopsis thaliana, UniProt Q9SKN5); relative to: out of 4 tests: 2
ARF2 727-859 (Arabidopsis thaliana, UniProt Q94JM3); relative to: out of 2 tests: 0
IAA10 (Arabidopsis thaliana, UniProt Q38828); relative to: out of 4 tests: 4
IAA7 (Arabidopsis thaliana, UniProt Q38825); relative to: out of 4 tests: 3
ARF22 498-598 (Arabidopsis thaliana, UniProt Q9C8N7); relative to: out of 4 tests: 2
IAA29 (Arabidopsis thaliana, UniProt Q93WC4); relative to: out of 4 tests: 2
IAA33 (Arabidopsis thaliana, UniProt Q9FKM7); relative to: out of 4 tests: 2
ARF11 500-622 (Arabidopsis thaliana, UniProt Q9ZPY6); relative to: out of 4 tests: 0

Sample 2
Target: CCND2, cyclin fold, Cln2 fusion (human)
Method: yeast growth competition, sequencing
Medium: yeast
Setting: weak parent motif
Relative to: not given
Reading: higher = stronger binding
Endpoint: normalised enrichment score
Starting sequence: SCAPER docking peptide (human); SNARRSLNFGGST
SNARRSLNYGGST [F9Y]: -0.0133
SNSRRSLNFGGST [A3S]: 0.584
KNARRSLNFGGST [S1K]: 0.35
SNARRSLNKGGST [F9K]: 0.154
SNERRSLNFGGST [A3E]: 0.0788
SNAGRSLNFGGST [R4G]: 0.173
SNAKRSLNFGGST [R4K]: 0.394
SNPRRSLNFGGST [A3P]: 0.213
SNARRSLPFGGST [N8P]: 0.257
SNARRSLNWGGST [F9W]: 0.84
SNARRSLNFGGNT [S12N]: 0.878

Sample 3
Target: PABPC1L2, full length, GST fusion (mouse, UniProt A0ABA7IW68)
Method: RNAcompete
Form: RNA
Medium: in vitro
Concentration: 20 nM
Setting: 7-mer, probes averaged, single round
Relative to: mean of 7-mers
Reading: higher = stronger binding
Endpoint: 7-mer Z-score
Residues (chain): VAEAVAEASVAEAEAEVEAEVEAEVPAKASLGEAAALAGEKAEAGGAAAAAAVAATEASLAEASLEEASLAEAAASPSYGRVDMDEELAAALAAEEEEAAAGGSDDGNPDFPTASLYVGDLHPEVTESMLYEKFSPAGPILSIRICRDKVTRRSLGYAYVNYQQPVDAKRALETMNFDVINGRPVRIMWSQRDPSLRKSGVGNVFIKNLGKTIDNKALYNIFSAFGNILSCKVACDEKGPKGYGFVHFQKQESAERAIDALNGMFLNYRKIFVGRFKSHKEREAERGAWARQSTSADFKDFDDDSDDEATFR
CGUCAUC: -0.258
CUCGGAA: -0.0863
CAGUGGG: 0.177
UGGCAGU: -0.079
AGUCCGU: -0.304
GUCUCGG: -0.135
CGUUCUC: -0.505
ACGACCG: -0.0844
GAGAUAC: -0.05
GAGUGCU: -0.15

Further values, each from its own experiment
PhoQ, residues 284 288 289 292 302 303 SSLVEF
fold induction (PhoP, residues 12 14 15 18 19 AWHSL (Escherichia coli, UniProt P23836); Sort-seq, refers to: YFP reporter; E. coli; PhoQ-PhoP variant library, added: 10 µM Mg2+; relative to: high Mg2+ state, higher = stronger signaling): 3.92

For quick reference, copied from above (sample 1):
ARF22 498-598 (Arabidopsis thaliana, UniProt Q9C8N7); relative to: out of 4 tests: 2
ARF10 575-693 (Arabidopsis thaliana, UniProt Q9SKN5); relative to: out of 4 tests: 2
IAA7 (Arabidopsis thaliana, UniProt Q38825); relative to: out of 4 tests: 3
IAA33 (Arabidopsis thaliana, UniProt Q9FKM7); relative to: out of 4 tests: 2
ARF11 500-622 (Arabidopsis thaliana, UniProt Q9ZPY6); relative to: out of 4 tests: 0
